Measurements gathered from unrelated publications.
Each line is one published result; not all experiments were run side by side. ± gives the spread as reported.
Cell line: K562

The IC50 of O=c1cc(-c2ccc(O)cc2)oc2cc(O)cc(O)c12 is reported as 350 µM (cell growth or viability, ATP luminescence; 24 h).
With COc1cccc(-c2cc(-c3ccccc3O)nc(N)n2)c1 the IC50 was 82 µM (cell growth or viability, MTT; 48 h).
CC(C)C[C@H](NC(=O)[C@@H](O)[C@H](N)Cc1ccccc1)C(=O)O has an inhibition of 19.6% (cell growth or viability; 580 µM).
The IC50 of COc1cc2c(NC3CCN(CCCC(=O)NCCCCCCCCCCCC(=O)N[C@H](C(=O)N4C[C@H](O)C[C@H]4C(=O)NCc4ccc(-c5scnc5C)cc4)C(C)(C)C)CC3)nc(N3CCC(F)(F)CC3)nc2cc1OCCCN1CCCC1 is reported as 2 µM (cell growth or viability, CCK-8; 7 days).
The IC50 of O=c1c(O)c(-c2ccc(O)c(O)c2)oc2cc(O)cc(O)c12 is reported as 33 µM (cell growth or viability, ATP luminescence; 24 h).
The IC50 of COc1ccc(-c2cc(-c3ccc(O)cc3)nc(N)n2)cc1 is reported as 43.2 µM (cell growth or viability, MTT; 48 h).
Cc1cc(O)c2c(c1)C(=O)c1cc(O)cc(O)c1C2=O gave an IC50 of 13 µM (cell growth or viability, ATP luminescence; 24 h).
COc1cc(C(=O)c2sc3cc(C)ccc3c2N)cc(OC)c1OC has an IC50 of 0.006 µM (cell growth or viability).
With Nc1nc(-c2ccccc2)cc(-c2ccccc2O)n1 the IC50 was 57.4 µM (cell growth or viability, MTT; 48 h).
The IC50 of COc1cc(C(=O)c2sc3ccccc3c2N)cc(OC)c1OC is reported as 0.53 µM (cell growth or viability).
For COc1cccc(-c2cc(-c3ccccc3)nc(N)n2)c1, the IC50 was 32.4 µM (cell growth or viability, MTT; 48 h).
COc1ccc2c(NC(=O)CCl)c(C(=O)c3cc(OC)c(OC)c(OC)c3)oc2c1 gave a sub-G1 cells of 13 ± 2% (flow cytometry; IC50).
For CNC(=O)c1cc(Oc2ccc(NC(=O)Nc3cc(C(C)(C)C)nn3-c3ccc4ncccc4c3)c(F)c2)ccn1, “threshold concentration for apoptosis” read 50 nM (annexin V staining; 72 h, continuous exposure).
For C(=C\c1ccccc1)/c1ccccc1, the IC50 was 500 µM (cell growth or viability, ATP luminescence; 24 h).
With COc1cc(C(=O)c2sc3c(C)cccc3c2N)cc(OC)c1OC the IC50 was 0.03 µM (cell growth or viability).

Excerpt of the above:
For CNC(=O)c1cc(Oc2ccc(NC(=O)Nc3cc(C(C)(C)C)nn3-c3ccc4ncccc4c3)c(F)c2)ccn1, “threshold concentration for apoptosis” read 50 nM (annexin V staining; 72 h, continuous exposure).
